Measured values from different studies.
Lines come from different studies, so protocols differ. ± gives the spread as reported.
Sequence of UniProt P21554 (whole entry, unmodified, looked up): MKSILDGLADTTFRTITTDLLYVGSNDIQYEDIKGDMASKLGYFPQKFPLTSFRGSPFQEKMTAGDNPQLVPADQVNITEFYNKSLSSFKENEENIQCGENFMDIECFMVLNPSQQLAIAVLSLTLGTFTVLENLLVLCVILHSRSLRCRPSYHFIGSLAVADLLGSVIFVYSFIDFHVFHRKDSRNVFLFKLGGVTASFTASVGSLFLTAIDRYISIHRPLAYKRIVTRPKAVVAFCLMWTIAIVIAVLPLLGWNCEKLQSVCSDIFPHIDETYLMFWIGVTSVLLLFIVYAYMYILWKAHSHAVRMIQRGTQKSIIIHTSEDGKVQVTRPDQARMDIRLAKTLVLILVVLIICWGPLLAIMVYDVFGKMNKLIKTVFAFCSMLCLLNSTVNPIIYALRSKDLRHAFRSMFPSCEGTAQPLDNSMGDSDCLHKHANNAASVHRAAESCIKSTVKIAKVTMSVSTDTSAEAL
Sequence of UniProt P41586 (whole entry, unmodified, looked up): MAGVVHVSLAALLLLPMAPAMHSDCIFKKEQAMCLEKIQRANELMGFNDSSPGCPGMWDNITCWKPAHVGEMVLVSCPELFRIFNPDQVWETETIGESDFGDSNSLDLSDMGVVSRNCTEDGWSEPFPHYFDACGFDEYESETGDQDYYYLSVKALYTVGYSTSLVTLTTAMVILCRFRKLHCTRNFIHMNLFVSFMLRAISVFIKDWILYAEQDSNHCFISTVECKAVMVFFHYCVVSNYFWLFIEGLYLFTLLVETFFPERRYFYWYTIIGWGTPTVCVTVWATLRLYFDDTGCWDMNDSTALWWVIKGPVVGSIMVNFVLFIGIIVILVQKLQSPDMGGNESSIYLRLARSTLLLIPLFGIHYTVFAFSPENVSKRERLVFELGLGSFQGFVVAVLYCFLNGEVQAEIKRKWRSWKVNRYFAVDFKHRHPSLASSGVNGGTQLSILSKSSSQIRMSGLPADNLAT
Sequence of UniProt P41143 (whole entry, looked up): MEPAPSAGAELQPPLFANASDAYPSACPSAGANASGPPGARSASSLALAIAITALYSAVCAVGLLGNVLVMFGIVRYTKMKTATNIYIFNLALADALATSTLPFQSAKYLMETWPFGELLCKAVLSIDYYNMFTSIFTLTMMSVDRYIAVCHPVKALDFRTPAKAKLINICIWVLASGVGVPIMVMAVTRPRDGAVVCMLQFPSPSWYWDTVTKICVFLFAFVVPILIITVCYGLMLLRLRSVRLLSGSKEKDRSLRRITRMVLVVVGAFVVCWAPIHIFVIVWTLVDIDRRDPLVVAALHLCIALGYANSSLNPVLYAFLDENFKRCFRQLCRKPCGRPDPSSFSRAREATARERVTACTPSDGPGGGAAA
Sequence of UniProt P54941 (whole entry, looked up): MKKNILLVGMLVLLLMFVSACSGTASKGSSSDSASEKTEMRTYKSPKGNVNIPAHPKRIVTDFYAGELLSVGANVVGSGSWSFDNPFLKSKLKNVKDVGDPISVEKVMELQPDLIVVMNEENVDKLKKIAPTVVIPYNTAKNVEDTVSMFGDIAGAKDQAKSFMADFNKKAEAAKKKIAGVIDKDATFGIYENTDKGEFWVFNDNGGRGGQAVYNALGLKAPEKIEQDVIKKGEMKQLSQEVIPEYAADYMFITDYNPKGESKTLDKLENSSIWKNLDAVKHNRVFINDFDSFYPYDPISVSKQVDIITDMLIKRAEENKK

With `COc1ccc(NC(=O)N2CCCCN3[C@H](CN(C)C)[C@H](c4ccc(C#Cc5ccccc5)cc4)[C@@H]3C2)cc1` the EC50 was 113 nM (Toxoplasma gondii; tachyzoite growth, luciferase; HFF; 72 h).
The EC50 of `Cc1ccc2c(C(C[N+](=O)[O-])c3cccs3)c(-c3ccccc3)[nH]c2c1` (centres unmarked) is reported as 70 nM (Cannabinoid receptor 1 (CNR1, Homo sapiens, UniProt P21554, V171A); G protein activation, agonist, BRET).
With `CSCC[C@H](NC(=O)[C@H](CCC(N)=O)NC(=O)[C@H](CCCCN)NC(=O)[C@H](CCCNC(=N)N)NC(=O)[C@H](Cc1ccc(O)cc1)NC(=O)[C@H](CCCNC(=N)N)NC(=O)[C@H](CO)NC(=O)[C@H](Cc1ccc(O)cc1)NC(=O)[C@H](CO)NC(=O)[C@H](CC(=O)O)NC(=O)[C@@H](NC(=O)[C@@H](N)Cc1ccccc1)[C@@H](C)O)C(=O)N[C@@H](C)C(=O)N[C@H](C(=O)N[C@@H](CCCCN)C(=O)N[C@@H](CCCCN)C(=O)N[C@@H](Cc1ccc(O)cc1)C(=O)N[C@@H](CC(C)C)C(=O)N[C@@H](C)C(=O)N[C@@H](C)C(=O)N[C@H](C(=O)N[C@@H](CC(C)C)C(=O)NCC(=O)N[C@@H](CCCCN)C(=O)N[C@@H](CCCNC(=N)N)C(=O)N[C@@H](Cc1ccc(O)cc1)C(=O)N[C@@H](CCCCN)C(=O)N[C@@H](CCC(N)=O)C(=O)N[C@@H](CCCCn1cc(C[C@H](NC(=O)CNC(=O)[C@H](CO)NC(=O)[C@H](CCCNC(=N)N)NC(=O)[C@H](CO)NC(=O)[C@H](CC(C)C)NC(=O)[C@H](CC(C)C)NC(=O)CNC(=O)[C@H](C)NC(=O)[C@H](CC(C)C)NC(=O)[C@H](CCCNC(=N)N)NC(=O)[C@H](Cc2c[nH]cn2)NC(=O)[C@@H](NC(=O)[C@@H](N)C(C)C)[C@@H](C)O)C(=O)N[C@H](C(=O)N[C@H](C(=O)N[C@@H](CCCCN)C(=O)N[C@@H](CC(N)=O)C(=O)N[C@@H](CC(N)=O)C(=O)N[C@@H](Cc2ccccc2)C(=O)N[C@H](C(=O)N2CCC[C@H]2C(=O)N[C@H](C(=O)N[C@@H](CC(N)=O)C(=O)N[C@H](C(=O)NCC(=O)N[C@@H](CO)C(=O)N[C@@H](CCCCN)C(=O)N[C@@H](C)C(=O)N[C@@H](Cc2ccccc2)C(N)=O)C(C)C)[C@@H](C)O)C(C)C)C(C)C)C(C)C)nn1)C(=O)N[C@H](C(=O)N[C@@H](CCCCN)C(=O)N[C@@H](CC(N)=O)C(=O)N[C@@H](CCCCN)C(N)=O)C(C)C)C(C)C)C(C)C` the Kb was 6310 nM (Pituitary adenylate cyclase-activating polypeptide type I receptor (ADCYAP1R1, Homo sapiens, UniProt P41586); cAMP accumulation, antagonist; COS-7 transfected; from pA2, single concentration, with: PACAP-38).
With `CCN(CC)C(=O)c1ccc(C(c2cccc(O)c2)N2CC(C)N(Cc3ccccc3)CC2C)cc1` (centres unmarked) the EC50 was 7.9 nM (Delta-type opioid receptor (OPRD1, Homo sapiens, UniProt P41143); β-arrestin recruitment, agonist).
`O=C1CCC(=O)N([O-])CCCCCNC(=O)CCC(=O)N([O-])CCCCCNC(=O)CCC(=O)N([O-])CCCCCN1.[Fe+3]` gave a Kd of 28 ± 9 nM (Iron(3+)-hydroxamate-binding protein YxeB (yxeB, Bacillus subtilis, UniProt P54941); binding, Trp fluorescence quenching; pH 7.4, with: yxeB 100 nM).
`CSCC[C@H](NC(=O)[C@H](CCC(N)=O)NC(=O)[C@H](CCCCN)NC(=O)[C@H](CCCNC(=N)N)NC(=O)[C@H](Cc1ccc(O)cc1)NC(=O)[C@H](CCCNC(=N)N)NC(=O)[C@H](CO)NC(=O)[C@H](Cc1ccc(O)cc1)NC(=O)[C@H](CO)NC(=O)[C@H](CC(=O)O)NC(=O)[C@@H](NC(=O)[C@@H](N)Cc1ccccc1)[C@@H](C)O)C(=O)N[C@@H](C)C(=O)N[C@H](C(=O)N[C@@H](CCCCN)C(=O)N[C@@H](CCCCn1cc(C[C@H](NC(=O)CNC(=O)[C@H](CO)NC(=O)[C@H](CCCNC(=N)N)NC(=O)[C@H](CO)NC(=O)[C@H](CC(C)C)NC(=O)[C@H](CC(C)C)NC(=O)CNC(=O)[C@H](C)NC(=O)[C@H](CC(C)C)NC(=O)[C@H](CCCNC(=N)N)NC(=O)[C@H](Cc2c[nH]cn2)NC(=O)[C@@H](NC(=O)[C@@H](N)C(C)C)[C@@H](C)O)C(=O)N[C@H](C(=O)N[C@H](C(=O)N[C@@H](CCCCN)C(=O)N[C@@H](CC(N)=O)C(=O)N[C@@H](CC(N)=O)C(=O)N[C@@H](Cc2ccccc2)C(=O)N[C@H](C(=O)N2CCC[C@H]2C(=O)N[C@H](C(=O)N[C@@H](CC(N)=O)C(=O)N[C@H](C(=O)NCC(=O)N[C@@H](CO)C(=O)N[C@@H](CCCCN)C(=O)N[C@@H](C)C(=O)N[C@@H](Cc2ccccc2)C(N)=O)C(C)C)[C@@H](C)O)C(C)C)C(C)C)C(C)C)nn1)C(=O)N[C@@H](Cc1ccc(O)cc1)C(=O)N[C@@H](CC(C)C)C(=O)N[C@@H](C)C(=O)N[C@@H](C)C(=O)N[C@H](C(=O)N[C@@H](CC(C)C)C(=O)NCC(=O)N[C@@H](CCCCN)C(=O)N[C@@H](CCCNC(=N)N)C(=O)N[C@@H](Cc1ccc(O)cc1)C(=O)N[C@@H](CCCCN)C(=O)N[C@@H](CCC(N)=O)C(=O)N[C@@H](CCCNC(=N)N)C(=O)N[C@H](C(=O)N[C@@H](CCCCN)C(=O)N[C@@H](CC(N)=O)C(=O)N[C@@H](CCCCN)C(N)=O)C(C)C)C(C)C)C(C)C` has a Kb of > 10000 nM (Pituitary adenylate cyclase-activating polypeptide type I receptor (ADCYAP1R1, Homo sapiens, UniProt P41586, del89-109); cAMP, antagonist).
The EC50 of `COc1ccccc1C(C[N+](=O)[O-])c1c(-c2ccccc2)[nH]c2ccccc12` (centres unmarked) is reported as 280 nM (Cannabinoid receptor 1 (CNR1, Homo sapiens, UniProt P21554, L387A); G protein activation, agonist, BRET).
`CC[C@H](C)[C@H](NC(=O)[C@@H](NC(C)=O)C(C)(C)C)C(=O)N[C@H](C(=O)N[C@H](C(=O)N[C@H](C(=O)NCC(=O)N1CCC[C@H]1C(=O)N[C@@H](Cc1c[nH]cn1)C(=O)N[C@@H](CCC(=O)O)C(=O)N[C@@H](CCC(=O)O)C(=O)N[C@@H](Cc1ccc(O)cc1)C(=O)N[C@@H](CCCCNC(=S)Nc1ccc2c(c1)C(=O)OC21c2ccc(O)cc2Oc2cc(O)ccc21)C(N)=O)[C@@H](C)O)[C@@H](C)CC)C(C)(C)C` has a Kd of > 5400 nM (Protein phosphatase 3 catalytic subunit alpha, with calcineurin B (PPP3CA, Homo sapiens, UniProt Q08209); binding, fluorescence polarisation; GST-calcineurin, with: FITC-labelled peptide).

Repeated from above:
The EC50 of `Cc1ccc2c(C(C[N+](=O)[O-])c3cccs3)c(-c3ccccc3)[nH]c2c1` (centres unmarked) is reported as 70 nM (Cannabinoid receptor 1 (CNR1, Homo sapiens, UniProt P21554, V171A); G protein activation, agonist, BRET).
